Measurements from different studies.
Compare with care: the assays were run in different laboratories.
Sequence of UniProt Q9H0K1 (whole entry, looked up): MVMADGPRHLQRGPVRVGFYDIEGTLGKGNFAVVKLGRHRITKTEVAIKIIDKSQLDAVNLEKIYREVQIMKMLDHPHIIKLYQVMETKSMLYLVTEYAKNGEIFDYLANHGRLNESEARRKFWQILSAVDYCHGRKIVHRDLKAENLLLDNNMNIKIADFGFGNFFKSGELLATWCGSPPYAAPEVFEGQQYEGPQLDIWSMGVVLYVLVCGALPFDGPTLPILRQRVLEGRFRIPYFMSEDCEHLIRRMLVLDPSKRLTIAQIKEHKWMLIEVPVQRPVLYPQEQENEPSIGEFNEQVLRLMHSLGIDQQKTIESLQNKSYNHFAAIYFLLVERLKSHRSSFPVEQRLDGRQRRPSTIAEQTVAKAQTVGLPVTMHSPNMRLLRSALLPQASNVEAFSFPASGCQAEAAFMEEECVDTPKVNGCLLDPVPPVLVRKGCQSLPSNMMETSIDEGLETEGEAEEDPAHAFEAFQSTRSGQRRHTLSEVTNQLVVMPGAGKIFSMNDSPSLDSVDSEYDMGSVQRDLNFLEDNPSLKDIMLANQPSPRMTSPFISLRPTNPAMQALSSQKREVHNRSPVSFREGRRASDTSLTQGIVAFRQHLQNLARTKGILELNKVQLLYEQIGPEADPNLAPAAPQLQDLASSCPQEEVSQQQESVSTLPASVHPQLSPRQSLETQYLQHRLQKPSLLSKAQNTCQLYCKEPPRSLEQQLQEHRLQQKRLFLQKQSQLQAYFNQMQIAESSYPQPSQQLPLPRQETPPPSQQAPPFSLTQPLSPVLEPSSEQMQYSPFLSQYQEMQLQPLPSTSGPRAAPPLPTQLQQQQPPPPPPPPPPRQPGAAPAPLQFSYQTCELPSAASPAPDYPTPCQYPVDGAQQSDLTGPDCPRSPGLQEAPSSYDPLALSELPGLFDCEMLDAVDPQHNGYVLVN
Sequence of UniProt Q00532 (whole entry, looked up): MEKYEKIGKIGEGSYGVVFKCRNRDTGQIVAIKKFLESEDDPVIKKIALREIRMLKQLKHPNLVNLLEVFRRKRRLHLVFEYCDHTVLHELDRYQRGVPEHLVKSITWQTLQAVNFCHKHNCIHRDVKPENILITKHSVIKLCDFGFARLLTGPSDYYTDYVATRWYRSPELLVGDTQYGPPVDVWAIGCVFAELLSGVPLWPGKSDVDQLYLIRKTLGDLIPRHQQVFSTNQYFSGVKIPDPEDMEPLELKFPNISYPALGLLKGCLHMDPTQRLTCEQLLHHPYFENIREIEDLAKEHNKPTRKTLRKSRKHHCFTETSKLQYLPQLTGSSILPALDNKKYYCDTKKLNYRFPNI
Sequence of UniProt P31152 (whole entry, looked up): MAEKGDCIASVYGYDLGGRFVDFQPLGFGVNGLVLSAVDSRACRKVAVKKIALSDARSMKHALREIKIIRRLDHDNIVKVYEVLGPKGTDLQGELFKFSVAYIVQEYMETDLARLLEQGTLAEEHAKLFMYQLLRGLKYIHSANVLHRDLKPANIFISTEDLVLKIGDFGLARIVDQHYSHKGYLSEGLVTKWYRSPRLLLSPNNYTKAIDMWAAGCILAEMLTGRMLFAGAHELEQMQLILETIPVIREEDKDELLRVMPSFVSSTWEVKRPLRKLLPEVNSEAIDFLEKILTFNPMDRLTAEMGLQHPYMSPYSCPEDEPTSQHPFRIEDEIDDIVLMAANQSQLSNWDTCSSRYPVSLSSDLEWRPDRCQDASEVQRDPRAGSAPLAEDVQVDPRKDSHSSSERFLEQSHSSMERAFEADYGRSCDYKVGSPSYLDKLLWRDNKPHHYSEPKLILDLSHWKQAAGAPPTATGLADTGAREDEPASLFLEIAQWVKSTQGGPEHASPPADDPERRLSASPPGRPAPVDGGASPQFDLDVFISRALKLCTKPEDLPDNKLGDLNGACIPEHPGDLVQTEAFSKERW
Sequence of UniProt P10721 (whole entry, looked up): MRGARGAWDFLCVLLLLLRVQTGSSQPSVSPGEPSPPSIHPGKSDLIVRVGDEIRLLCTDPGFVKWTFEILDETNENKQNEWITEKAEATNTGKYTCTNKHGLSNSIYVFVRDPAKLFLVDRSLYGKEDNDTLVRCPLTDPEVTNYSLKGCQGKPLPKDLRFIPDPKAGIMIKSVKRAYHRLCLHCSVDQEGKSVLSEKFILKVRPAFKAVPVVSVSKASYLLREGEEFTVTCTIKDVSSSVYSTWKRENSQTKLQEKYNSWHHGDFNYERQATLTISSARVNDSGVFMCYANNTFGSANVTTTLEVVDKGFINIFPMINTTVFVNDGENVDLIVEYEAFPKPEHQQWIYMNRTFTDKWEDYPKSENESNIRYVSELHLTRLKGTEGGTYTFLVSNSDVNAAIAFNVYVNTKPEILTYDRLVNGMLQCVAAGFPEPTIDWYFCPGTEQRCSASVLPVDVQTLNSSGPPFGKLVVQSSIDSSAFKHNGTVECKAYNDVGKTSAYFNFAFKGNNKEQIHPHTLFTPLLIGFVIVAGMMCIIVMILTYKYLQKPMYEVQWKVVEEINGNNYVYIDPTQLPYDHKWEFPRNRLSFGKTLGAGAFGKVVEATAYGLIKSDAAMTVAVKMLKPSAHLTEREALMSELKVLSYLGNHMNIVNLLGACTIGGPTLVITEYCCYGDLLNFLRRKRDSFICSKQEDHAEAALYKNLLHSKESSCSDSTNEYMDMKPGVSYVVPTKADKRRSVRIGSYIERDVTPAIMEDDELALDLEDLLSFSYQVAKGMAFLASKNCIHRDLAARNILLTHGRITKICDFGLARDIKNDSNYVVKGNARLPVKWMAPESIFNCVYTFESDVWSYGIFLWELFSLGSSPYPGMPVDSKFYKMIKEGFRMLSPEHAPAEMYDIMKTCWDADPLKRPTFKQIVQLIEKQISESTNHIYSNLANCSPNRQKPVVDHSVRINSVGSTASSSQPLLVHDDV

COc1ncccc1-c1cnn2ccc(N3CCN(C(=O)OC(C)C)CC3)nc12  remaining binding (Cyclin-dependent kinase-like 1 (CDKL1, Homo sapiens, UniProt Q00532); binding, competition with immobilised ligand; 1 µM): 100%
Cn1cc2c3c1C(=O)C(N)=CC3=[N+](C)CC2  CC50 (HEK293; cell growth or viability, MTT; 72 h): 1000 nM
[2H]c1c([2H])c([C@]2([2H])CCCN2C(=O)C(C)(C)Oc2ccc3cn[nH]c3c2)c([2H])c([2H])c1C([2H])([2H])[2H]  remaining binding (Serine/threonine-protein kinase SIK2 (SIK2, Homo sapiens, UniProt Q9H0K1); binding, competition with immobilised ligand; 1 µM): 97%
CCN(CC)CCCC(C)Nc1ccnc2cc(Cl)ccc12 (centres unmarked)  CC50 (HEK-293T; cell growth or viability, CCK-8; 48 h): > 100000 nM
C/C=C1/CN2CC[C@@]34c5ccccc5N(C)[C@]35OC[C@@]4(C(=O)OC)[C@H]1C[C@H]25  Papp B→A (Caco-2; pH 7.4): 24.5 ×10⁻⁶ cm/s
O=C(CSc1nnc(O)n1Cc1ccccc1)Nc1ccccc1-c1ccccc1  IC50 (Dihydroorotate dehydrogenase (quinone), mitochondrial (PFF0160c, Plasmodium falciparum, UniProt Q08210); enzyme activity, inhibitor, absorbance): 336 nM
CC[C@H](C)CCCCC(=O)N[C@@H](CCN)C(=O)N[C@H](C(=O)N[C@@H](CCN)C(=O)N[C@H]1CCNC(=O)[C@H]([C@@H](C)O)NC(=O)[C@H](CCN)NC(=O)[C@H](CCN)NC(=O)[C@H](CC(C)C)NC(=O)[C@@H](CC(C)C)NC(=O)[C@H](CCN)NC1=O)[C@@H](C)O  AUC(0-t) (male Sprague-Dawley rat, plasma; subcutaneous, 10 mg/kg): 22500 ng·h/mL
[18FH]  tracer uptake (mouse, heart; intravenous, 1 h): 0.28 %ID/g
Cc1ccc(S(=O)(=O)Oc2ccc3c(c2)Oc2nc4c(c(N)c2C3c2ccc(Cl)c(Cl)c2)CCCC4)cc1 (centres unmarked)  viability (SH-SY5Y; cell growth or viability, MTT; 25 µM): 58.2%
Cc1nn(C)cc1-c1nc2c(N3CCN(Cc4ccc(Cl)cc4)CC3)c(Cl)cnc2[nH]1  remaining binding (Mast/stem cell growth factor receptor Kit (KIT, Homo sapiens, UniProt P10721); binding, competition with immobilised ligand; 1 µM): 4.6%
Nc1ncc(-c2nc(N3CCOCC3)nc(N3CCOCC3)n2)c(C(F)F)n1  remaining binding (Mitogen-activated protein kinase 4 (MAPK4, Homo sapiens, UniProt P31152); binding, competition with immobilised ligand; 10 µM): 99%
CC(C)C[C@H](NC(=O)[C@H](Cc1ccccc1)NC(=O)[C@H](Cc1ccccc1)NC(=O)Cc1ccc(-c2ccccc2)cc1)C(=O)N[C@@H](CCCCN)C(=O)N[C@@H](CCCNC(=N)N)C(=O)N[C@H](C(=O)N[C@@H](Cc1c[nH]c2ccccc12)C(=O)N[C@@H](CCCCN)C(=O)N[C@@H](CCCNC(=N)N)C(=O)O)C(C)C  compound remaining (metabolic stability; dog, liver microsomes; 45 min): 46.7%
COc1ccc(S(=O)(=O)Oc2ccc3c(c2)Oc2nc4c(c(N)c2C3c2cccc(OC)c2)CCCC4)cc1 (centres unmarked)  viability (SH-SY5Y; cell growth or viability, MTT; 6.3 µM): 72.9%
CC[C@H](C)[C@H](NC(=O)CN)C(=O)NCC(=O)N[C@@H](C)C(=O)N[C@H](C(=O)N[C@@H](CC(C)C)C(=O)N[C@@H](CCCCN)C(=O)N[C@H](C(=O)N[C@@H](CC(C)C)C(=O)N[C@H](C(=O)N[C@H](C(=O)NCC(=O)N[C@@H](CC(C)C)C(=O)N1CCC[C@H]1C(=O)N[C@@H](C)C(=O)N[C@@H](CC(C)C)C(=O)N[C@H](C(=O)N[C@@H](CO)C(=O)N[C@@H](Cc1c[nH]c2ccccc12)C(=O)N[C@H](C(=O)N[C@@H](CCCCN)C(=O)N[C@@H](CCCNC(=N)N)C(=O)N[C@@H](CCCCN)C(=O)N[C@@H](CCCNC(=N)N)C(=O)N[C@@H](CCC(N)=O)C(=O)N[C@@H](CCC(N)=O)C(N)=O)[C@@H](C)CC)[C@@H](C)CC)[C@@H](C)O)[C@@H](C)O)C(C)C)C(C)C  compound remaining (chemical stability, HPLC; human, serum; 300 µM, 4 h): ~60%
O=C([O-])CN1CCN(CC(=O)[O-])CCN(CC(=O)NCC2CCC(C(=O)N[C@@H](Cc3ccc4ccccc4c3)C(=O)NCCCC[C@H](NC(=O)N[C@@H](CCC(=O)O)C(=O)O)C(=O)O)CC2)CCN(CC(=O)[O-])CC1.[177Lu+3] (some centres unmarked)  tracer uptake (22Rv1 tumour model; host not given, blood; 96 h, tumour-bearing): 0.04 %ID/g
C[C@]12CC[C@H]3[C@@H](CC=C4CC(O)CC[C@@]43CO)[C@@H]1CCC2O (some centres unmarked)  bioavailability (rat, plasma; intraperitoneal, 20 mg/kg): 70.8%
Nc1c2c(nc3c1C(c1ccc(Cl)c(Cl)c1)c1ccc(OCC(=O)c4ccc(Cl)cc4)cc1O3)CCCC2 (centres unmarked)  viability (SH-SY5Y; cell growth or viability, MTT; 100 µM): 45.1%
CCOC(=O)c1c(NC(=O)CNC(C)C)sc2c1CCCCC2  concentration (male mouse, brain; intraperitoneal, 5 mg/kg, 1 h): 177 ng/g
CC(C)C(NC(=O)Cc1cccc2ccccc12)C(=O)Nc1cccc(C#N)c1 (centres unmarked)  IC50 (Dihydroorotate dehydrogenase (quinone), mitochondrial (PFF0160c, Plasmodium falciparum, UniProt Q08210, E182D); enzyme activity, inhibitor, absorbance): > 10000 nM
COc1ccc([C@@]23Oc4cc(OC)cc(OC)c4[C@@]24NC(C)=N[C@@]4(O)[C@H](C(=O)N(C)OC)[C@H]3c2ccccc2)cc1  microsomal CLint (metabolic stability; human, liver microsomes): 11.6 µL/min/mg

Some of these lines once more:
[18FH]  tracer uptake (mouse, heart; intravenous, 1 h): 0.28 %ID/g
